Assay results pooled from the literature.
Each numbered part is a random draw from the data of one study; scales do not carry over between parts.

Study 1
Target: Ras GTPase-activating protein-binding protein 1, full length (G3BP1, Homo sapiens, UniProt Q13283)
UniProt Q13283, sequence (whole entry, looked up): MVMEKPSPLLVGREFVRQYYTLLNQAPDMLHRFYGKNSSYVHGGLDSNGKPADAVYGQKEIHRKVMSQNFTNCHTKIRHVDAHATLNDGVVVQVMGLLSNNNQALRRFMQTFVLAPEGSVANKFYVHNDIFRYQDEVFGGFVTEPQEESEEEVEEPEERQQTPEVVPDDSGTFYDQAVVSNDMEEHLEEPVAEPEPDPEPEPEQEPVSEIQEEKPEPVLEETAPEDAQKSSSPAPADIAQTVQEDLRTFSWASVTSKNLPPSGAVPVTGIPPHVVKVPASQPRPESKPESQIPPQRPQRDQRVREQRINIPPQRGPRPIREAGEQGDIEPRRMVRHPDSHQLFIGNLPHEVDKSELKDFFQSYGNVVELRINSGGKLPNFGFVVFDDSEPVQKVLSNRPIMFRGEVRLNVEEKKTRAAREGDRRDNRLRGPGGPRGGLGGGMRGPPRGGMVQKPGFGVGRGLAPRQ
Technique: RNA Bind-n-Seq
Form: RNA
Matrix: in vitro
Tested at: 200 nM
Setting: whole 134-nt RNA, ends assumed
Together with: 150 mM KCl
Relative to: input library
Reading: higher = stronger binding
Endpoint: log2 enrichment
Shared flanks, not repeated: GGGAGUUCUACAGUCCGACGAUC … UGGAAUUCUCGGGUGUCAAGG
UACCAUGGUGGAAGUUCCCGUUCUCGUAGCAGUAUUUUCCAUGCAGGAAAAAGCCAAGGACUACAUGAAAACAACAUACCUGACAAUGAA: 0.88
ACCAUGCAGGUGGGCAUCUUUGGGAAGUGGGGCAAGAAAGGGAUAGGGAGGGGGGUAACACUUUGGGAACAGGUGGUCCCAGGUCGUUUC: 0.958
UGGGAGGUGGAUUUUGUUUAUUUUUUUAGCUCAUUUCCAGGGGUGGGAAUUUUAUUUUAAUAUGUGUCAUGAAUAAAGUUGUUUUUGAAA: 0.177
CCUUUUUGAGAAGGCCGGACCCAUUUGGGAUCUACGUCUUAUGAUGGAUCCACUGUCCGGUCAGAAUAGAGGGUAUGCAUUUAUCACCUU: -1.28
UCAAGUCCUGUGCUACACAUCGUAUGUACCGAAUCGGGAAAGGGGAAAGGAAAGGAAAGUAUUAUGUUACGCCGUUCGGAUCUGCACUUC: -0.872
GUCCUGUGCUACACAUCGUAUGUACCGAAUCGGGGUUUUUGGGGUUUUUGGGGUGGGGAAAGUAUUAUGUUACGCCGUUCGGAUCUGCAC: 0.432
UGUGGAGGAGACGGCCGACUCGACGCUGUGCCACAUCCUGAACCUGUACCGGCGGGCCACCUGGCUGCACCAGGCGCUGCGGGAGGGCAC: -0.901
AAGUCCUGUGCUACACAUCGUAUGUACCGAAUCGGAAAAGGAAAAGGGAAAAGGGGAAAGUAUUAUGUUACGCCGUUCGGAUCUGCACUU: -0.812

Study 2
Target: Histone acetyltransferase KAT6A, both winged helices, GST fusion (KAT6A, Homo sapiens, UniProt Q92794, residues 1-181)
Technique: protein binding microarray
Form: double-stranded DNA, one strand shown
Matrix: in vitro
Tested at: not given
Setting: 8-mer, flanks averaged, mean of 2 arrays, mostly near background
Relative to: not given
Reading: higher = stronger binding
Endpoint: E-score
Residues (chain): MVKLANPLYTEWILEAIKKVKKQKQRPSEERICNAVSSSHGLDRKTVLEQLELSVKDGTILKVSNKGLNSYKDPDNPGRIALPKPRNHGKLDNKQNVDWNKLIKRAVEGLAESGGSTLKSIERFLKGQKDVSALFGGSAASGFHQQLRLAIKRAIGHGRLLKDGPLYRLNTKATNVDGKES
GCGATGGA: 0.167
AATAGAAC: 0.0169
CTGCTATA: -0.0699
CCTAAGGA: -0.187
CGAGGCGA: -0.0866
CCGGCGCA: 0.345

Study 3
Target: Sal-like protein 4, full length isoform A (SALL4, Homo sapiens, UniProt Q9UJQ4, residues 1-1053)
UniProt Q9UJQ4, sequence (whole entry, looked up): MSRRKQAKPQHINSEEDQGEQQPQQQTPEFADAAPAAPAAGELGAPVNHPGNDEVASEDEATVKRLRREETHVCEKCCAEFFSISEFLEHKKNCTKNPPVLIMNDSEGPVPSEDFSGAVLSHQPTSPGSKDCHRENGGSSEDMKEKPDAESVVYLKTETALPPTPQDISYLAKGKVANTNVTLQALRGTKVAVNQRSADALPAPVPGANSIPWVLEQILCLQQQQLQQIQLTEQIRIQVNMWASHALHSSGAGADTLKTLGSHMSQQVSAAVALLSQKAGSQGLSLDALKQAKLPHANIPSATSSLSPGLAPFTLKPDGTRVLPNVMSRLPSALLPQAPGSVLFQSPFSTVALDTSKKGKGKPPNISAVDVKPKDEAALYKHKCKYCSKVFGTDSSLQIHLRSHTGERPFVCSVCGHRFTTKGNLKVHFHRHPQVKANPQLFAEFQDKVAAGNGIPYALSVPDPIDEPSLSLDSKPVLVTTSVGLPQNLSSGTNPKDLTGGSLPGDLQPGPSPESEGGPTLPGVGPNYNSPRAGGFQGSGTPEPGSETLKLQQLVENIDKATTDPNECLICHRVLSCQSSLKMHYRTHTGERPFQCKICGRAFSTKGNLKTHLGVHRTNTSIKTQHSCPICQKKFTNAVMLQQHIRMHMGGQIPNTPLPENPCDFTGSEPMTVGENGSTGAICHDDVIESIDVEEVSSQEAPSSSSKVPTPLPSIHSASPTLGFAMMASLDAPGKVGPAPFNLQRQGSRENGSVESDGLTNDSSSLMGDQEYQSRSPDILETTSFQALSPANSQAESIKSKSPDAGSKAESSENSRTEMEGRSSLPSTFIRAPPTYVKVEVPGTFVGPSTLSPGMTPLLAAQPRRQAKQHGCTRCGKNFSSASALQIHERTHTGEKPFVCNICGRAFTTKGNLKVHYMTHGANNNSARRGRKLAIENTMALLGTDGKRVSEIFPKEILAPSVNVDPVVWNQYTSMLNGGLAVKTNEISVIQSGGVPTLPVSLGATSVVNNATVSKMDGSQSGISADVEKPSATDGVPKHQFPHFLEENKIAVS
Technique: universal PBM
Form: double-stranded DNA, one strand shown
Matrix: in vitro
Tested at: 600 nM
Setting: 8-mer, flanks averaged, mean of replicates
Reading: higher = stronger binding
Endpoint: E-score
AGCATACT: 0.196
GACAATGC: 0.138
AGACACTA: 0.088
CTATGACA: 0.167
AATCATTG: 0.27
GTAAACTA: 0.244

Further values, each from its own experiment
PhoQ, residues 284 288 289 292 302 303 TTCLQL  fold induction (PhoP, residues 12 14 15 18 19 QQAYL (Escherichia coli, UniProt P23836); Sort-seq, item: YFP reporter; E. coli; PhoQ-PhoP variant library, together with: 10 µM Mg2+; relative to: high Mg2+ state, higher = stronger signaling): 12.4

Excerpt of the above (study 3):
AGCATACT: 0.196
